Results pooled from the literature.
Parts stem from different laboratories: compare values within a part only.

Block 1
Target: Histone acetyltransferase KAT6A, winged helix 1, GST fusion (KAT6A, Homo sapiens, UniProt Q92794, residues 1-85)
Method: protein binding microarray
Molecule type: double-stranded DNA, one strand shown
Medium: in vitro
Concentration: not given
Notes: 8-mer, flanks averaged, mean of 2 arrays, mostly near background
Baseline: not given
Direction: higher = stronger binding
Measurement: E-score
Construct (chain): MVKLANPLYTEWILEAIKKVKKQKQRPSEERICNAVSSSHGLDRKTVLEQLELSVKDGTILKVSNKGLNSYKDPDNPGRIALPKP
Strand = AATCTGGA; result = -0.0979
Strand = ATCACAAT; result = -0.179
Strand = AGTGCCTC; result = -0.075
Strand = GAATTCGC; result = 0.113
Strand = ATTATAAA; result = -0.0902
Strand = CCAAGTCC; result = -0.0444
Strand = AGACCTAG; result = -0.0377
Strand = AGTGACTC; result = -0.159
Strand = AATAATAT; result = -0.0731
Strand = AATATCAG; result = -0.101
Strand = GGGACAGA; result = 0.0316
Strand = CCTTTCCG; result = 0.192
Strand = CTCAGCGA; result = 0.0405
Strand = CAGCTATG; result = -0.226
Strand = GGTATCCA; result = 0.0666
Strand = CCGCCTAG; result = 0.237
Strand = ATCCATAC; result = -0.175
Strand = CGGCGGTC; result = 0.42
Strand = TCCCGAGA; result = 0.173
Strand = GTCGTCAC; result = 0.0146
Strand = GGACAATA; result = -0.0116
Strand = GTTAGTCA; result = 0.15
Strand = AACATGCA; result = -0.0214
Strand = ATAGGCTG; result = -0.215
Strand = ACTAGCTA; result = -0.00873

Block 2
Target: Sal-like protein 4, full length isoform A (SALL4, Homo sapiens, UniProt Q9UJQ4, residues 1-1053)
Sequence of UniProt Q9UJQ4 (whole entry, looked up): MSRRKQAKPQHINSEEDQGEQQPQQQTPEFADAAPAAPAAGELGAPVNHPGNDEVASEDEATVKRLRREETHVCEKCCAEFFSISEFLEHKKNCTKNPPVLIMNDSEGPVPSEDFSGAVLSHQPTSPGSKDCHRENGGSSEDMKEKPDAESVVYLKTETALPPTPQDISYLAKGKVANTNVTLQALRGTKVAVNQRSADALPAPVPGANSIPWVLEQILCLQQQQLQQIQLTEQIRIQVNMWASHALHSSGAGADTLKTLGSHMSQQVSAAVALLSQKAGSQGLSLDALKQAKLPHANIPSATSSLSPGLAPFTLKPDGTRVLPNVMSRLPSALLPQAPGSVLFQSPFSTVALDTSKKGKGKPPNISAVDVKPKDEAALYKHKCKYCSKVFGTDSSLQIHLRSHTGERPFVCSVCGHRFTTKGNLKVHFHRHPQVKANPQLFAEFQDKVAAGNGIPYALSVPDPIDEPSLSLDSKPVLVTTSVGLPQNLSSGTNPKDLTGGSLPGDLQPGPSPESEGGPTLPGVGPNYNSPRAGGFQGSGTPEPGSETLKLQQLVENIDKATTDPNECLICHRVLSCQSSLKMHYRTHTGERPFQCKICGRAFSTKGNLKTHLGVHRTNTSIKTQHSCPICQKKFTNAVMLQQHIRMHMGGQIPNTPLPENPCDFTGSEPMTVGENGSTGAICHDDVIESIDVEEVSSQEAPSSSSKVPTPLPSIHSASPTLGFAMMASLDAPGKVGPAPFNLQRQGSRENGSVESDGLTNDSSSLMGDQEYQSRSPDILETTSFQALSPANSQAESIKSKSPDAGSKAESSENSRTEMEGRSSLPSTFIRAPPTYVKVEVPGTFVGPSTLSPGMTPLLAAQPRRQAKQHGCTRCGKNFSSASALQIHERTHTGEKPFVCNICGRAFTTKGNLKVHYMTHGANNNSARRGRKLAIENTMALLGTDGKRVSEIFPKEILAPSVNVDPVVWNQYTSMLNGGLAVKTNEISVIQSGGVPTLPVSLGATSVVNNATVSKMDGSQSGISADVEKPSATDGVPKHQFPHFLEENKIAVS
Method: universal PBM
Molecule type: double-stranded DNA, one strand shown
Medium: in vitro
Concentration: 600 nM
Notes: 8-mer, flanks averaged, mean of replicates
Direction: higher = stronger binding
Measurement: E-score
Strand = AGCTTTAC; result = 0.0507
Strand = CCACTTTC; result = -0.00705
Strand = AAATTGTG; result = 0.206
Strand = ATTAGGAG; result = 0.224
Strand = AACACGAC; result = -0.0446
Strand = TGCTCCCA; result = -0.091
Strand = CTAAGGTC; result = -0.0236
Strand = AGCTAGTC; result = -0.028
Strand = TATTTTAA; result = 0.379
Strand = CAGGTACA; result = -0.0613
Strand = ACAAGGCT; result = -0.0383
Strand = GTGGAATA; result = 0.149
Strand = AAACGGTG; result = -0.000905
Strand = CCAAAACG; result = -0.0531
Strand = CGTAAGTC; result = 0.0407
Strand = AATGAACG; result = 0.226
Strand = ACAGCCAC; result = -0.0934
Strand = ACTTAGGC; result = -0.153
Strand = ATGTGTTG; result = 0.258
Strand = ACCAGAAA; result = 0.0987

Block 3
Target: RING finger protein unkempt homolog, zinc fingers 1-6, SBP tag (UNK, Homo sapiens, UniProt Q9C0B0, residues 30-357)
Sequence of UniProt Q9C0B0 (30-357, looked up): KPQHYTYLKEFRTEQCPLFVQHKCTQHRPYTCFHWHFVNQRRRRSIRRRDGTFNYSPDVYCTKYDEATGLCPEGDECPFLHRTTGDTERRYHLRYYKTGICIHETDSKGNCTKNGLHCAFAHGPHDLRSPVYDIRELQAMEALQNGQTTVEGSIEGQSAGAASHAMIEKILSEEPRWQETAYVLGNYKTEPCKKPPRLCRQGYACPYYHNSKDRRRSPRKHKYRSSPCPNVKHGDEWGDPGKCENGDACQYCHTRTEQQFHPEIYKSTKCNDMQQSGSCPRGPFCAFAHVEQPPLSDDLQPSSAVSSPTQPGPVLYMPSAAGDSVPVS
Method: RNA Bind-n-Seq
Molecule type: RNA
Medium: in vitro
Concentration: 100 nM
Notes: RNA with constant flanks, vertebrate orthologous sites, ends assumed
Baseline: input RNA pool
Direction: higher = stronger binding
Measurement: bound/input enrichment
Constant ends, left off below: GGGAGUUCUACAGUCCGACGAUC … CAACAGAGGAUUGAGCAUCA
Strand = AAAGUUCCCCAUUGUCACUGAGAACCACCAAAUUUGACUUUCACAUUUGGUCUCAGAAUUUAGGUUCCUGCCCUGUUGUUUUUCUUUCUUCCUCUUUAAACAAACAAACAGUUUUCAGAA; result = 0.405 ratio
Strand = GUUGUGACCCAUUUAACAUACACAAAAAACUAGCCAAAAAAAAUUUGCAUGUAAUUGACUUAGAUGAUGCCACUUUUCUGAGUGCAAAAUUUGGAAGACAGCUUGUACCUGGGUGGAAGC; result = 1.54 ratio
Strand = UCUCUCAUUUUAUAUGUCCAAAAAAGGUUUUUGAAUUUUUAAAUACUUGCUAGUUUUAGUUAGCUCUGCCCUCAUGAAGUAUUACUAUAAUUCACCACAAACAUAUCUGUCUGAAUUACU; result = 0.643 ratio
Strand = UUACAGUCAUUGAUGGACUCUAUUUUUUUAUUAUUACUUGGACCUUGGUCGUUUUUAUACUAGCAACGGAAAAUGUCUUGUUUUAAUUUGUUUUUUGGGGGGUGCGGGGUGGGAAGUGUC; result = 1.12 ratio
Strand = CCUUCUAUUCAGGGUUGGGCUCAUCAAUAAAAGAUGUAAUAUUUGCAACAACUGUAUUAUAUAACUAGUUAAGUUGGGUUGAAUAUUUUUUUAUUAGCCUGUAAAUAAAGAUGGCAUCUU; result = 0.211 ratio
Strand = UCCCAGCACUCUGAUGAAAAGUGUGGACUGGUUGCUUGUAUUUUCCUUAUUCUUUUUAAUUAGUUUUAUUAUGUAUGCUACCAUUCGAACUGAGAGUAUUCGGUGGCUGAUUCCAGGACA; result = 4.26 ratio
Strand = UCCAGUCUUACACUUAUGGUUGGCCUCAAAUCUAUUGCAUUUAUGAUAAUGUAGUAUAUCUAGUUGAGUUUAAUAUUUUUUUAUUAGCCUGUAAAUAAAGAUGGCAUCUUCUACAUUAAA; result = 0.588 ratio
Strand = CGGGGUGCACCUGUGGGGCGCUGCUGGCCGCUUAGCGUCGUUUGGUUUGUGACCUUGACAUAAUAGAUAGGCUUGUGGGUUUUUUUAAUUUAAAAAUAUUAAGACUUAAUUCACUAAAAU; result = 0.557 ratio

Block 4
Target: RNA binding protein fox-1 homolog 2, RRM domain, GST-SBP tag (RBFOX2, Homo sapiens, UniProt O43251-10, residues 100-194)
Method: RNA Bind-n-Seq
Molecule type: RNA
Medium: in vitro
Concentration: 365 nM
Notes: natural RNA segment, single round, ends assumed
Baseline: no-protein control
Direction: higher = stronger binding
Measurement: RBNS enrichment (R)
Constant ends, left off below: GGGAGUUCUACAGUCCGACGAUC … UGGAAUUCUCGGGUGCCAA
Target sequence (chain): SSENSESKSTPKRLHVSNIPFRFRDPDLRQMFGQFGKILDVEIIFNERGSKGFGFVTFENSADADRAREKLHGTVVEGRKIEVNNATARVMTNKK
Strand = CCCAGAAAGCUUACCUGCGAGCUUGGGGUUUGGCUUGAGUUCUCUUUUCCUUGAUUUCUCAGUAGGUGCUAGAGUCCGUUCACACCCUUCACUGUGCGCGCAGACACUGA; result = 0.749
Strand = CCGGAGCCGGCCUUCAGCAAAGGCCUCCUGGGUUCAGUGACAGCCUCAGGCAGGGAUGGUGCUUGAGGCUGGGUGCAGAGAUAUGCCUGCAUGGCUCUCUUGUAGCCAAA; result = 0.478
Strand = AGGAUAAUAUAAAAAGCGGAUAGAUGGCGCUAUGUUUGAUUCCUACAACGAACCGAUCACCAGCUCCUUUUCAUUUUUAACUCUUUAAAAGGAUUCAAACGCAACUCAAA; result = 0.532
Strand = AGCACCUGCCUUUCCCUCCUGGGUCUCCUUGCCGCGUGCUGAGCCGAGGCAGGCCUGCAGGGCCUGGGCUACACCAUCCUGCCAGUGUCUCCCUCUCAGUGUCUCCCUCU; result = 0.345
Strand = AGACCUACAGUUUAUGUAUACAGUUGAUUUUGAUGUAUUUAUAAAAGCUUUUUUUUCUAGAUUUGACAUUUUUCUGUAUCAUUUUACUGUAUUUUUGCAUGGUUCCUUGU; result = 0.737
Strand = CAAAAUAGAAUAGCAUCUCCAUGUGCAUUAAAAACUUCGCCAGCACUGCCUUUUGCCAGCAUUCUAAAUUUGGAGUUUUACUGAGAAGGAAACUGUUUUUAUAGUUUUAA; result = 0.596
Strand = GUCCUUCUUAGAGAUGAAGAAAUAAUAAGGAAACAUCUUUCAUAGCCACAUUAAAUAAGAGAAACUGAUAUACAUUAUUUUUUUCUUUUUAAAGAUGACUUAUAAGAACC; result = 0.485
Strand = UAUAUGCUGGAUGUACGACAUUUUGUGACUGAAGAGACUUGGUUCCUUCUUCUUUUAUGUGUCUCAGAAUAUUUUUGAGGCGAAAGCGUCUGUCUCUUGGCUAUUUUAAC; result = 0.571

A few entries again (block 2):
Strand = CAGGTACA; result = -0.0613
Strand = CGTAAGTC; result = 0.0407
Strand = ACTTAGGC; result = -0.153
Strand = ACCAGAAA; result = 0.0987
Strand = ACAGCCAC; result = -0.0934
Strand = CTAAGGTC; result = -0.0236
Strand = AAACGGTG; result = -0.000905
Strand = ACAAGGCT; result = -0.0383
Strand = AACACGAC; result = -0.0446
Strand = CCAAAACG; result = -0.0531
